Published values gathered from unrelated publications.
Each numbered part is a random draw from the data of one study; scales do not carry over between parts. Positions count from the first letter of the parent shown.

Set 1 — technique: DHFR PCA, deep sequencing; medium: yeast; with: (+)-ABA 0.11 µM; relative to: wild-type fitted maximum; direction: higher = stronger binding
Target: ABI1, truncated, D143A, DHFR fusion (Arabidopsis thaliana)
Setting: methotrexate growth selection, single substitutions
Starting sequence: PYL1, truncated, DHFR fusion (Arabidopsis thaliana); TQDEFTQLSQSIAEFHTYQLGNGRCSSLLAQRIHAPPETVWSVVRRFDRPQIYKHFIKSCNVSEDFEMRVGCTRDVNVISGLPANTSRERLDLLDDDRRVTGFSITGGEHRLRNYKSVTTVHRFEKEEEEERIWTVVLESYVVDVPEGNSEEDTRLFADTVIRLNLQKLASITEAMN
Substitution | relative binding score
I33L | -1.45%
K116W | -4.12%
F157D | -1.23%
H34Q | 41.2%
T135K | -4.15%
A170L | -0.0815%
D144L | -2.9%
L29D | 4.28%
Q19A | 29.3%
L169G | 0.0782%
E14N | 5.82%
F5Y | 35.6%
N77I | 51.6%
S27V | 1.39%

Set 2 — technique: protein-binding microarray; molecule type: double-stranded DNA, one strand shown; medium: in vitro; tested at: not given; direction: higher = stronger binding
Target: Protein C-ets-1 (ETS1, Homo sapiens, UniProt P14921, residues 1-441, Y397A, full length assumed)
UniProt P14921, sequence (whole entry, unmodified, looked up): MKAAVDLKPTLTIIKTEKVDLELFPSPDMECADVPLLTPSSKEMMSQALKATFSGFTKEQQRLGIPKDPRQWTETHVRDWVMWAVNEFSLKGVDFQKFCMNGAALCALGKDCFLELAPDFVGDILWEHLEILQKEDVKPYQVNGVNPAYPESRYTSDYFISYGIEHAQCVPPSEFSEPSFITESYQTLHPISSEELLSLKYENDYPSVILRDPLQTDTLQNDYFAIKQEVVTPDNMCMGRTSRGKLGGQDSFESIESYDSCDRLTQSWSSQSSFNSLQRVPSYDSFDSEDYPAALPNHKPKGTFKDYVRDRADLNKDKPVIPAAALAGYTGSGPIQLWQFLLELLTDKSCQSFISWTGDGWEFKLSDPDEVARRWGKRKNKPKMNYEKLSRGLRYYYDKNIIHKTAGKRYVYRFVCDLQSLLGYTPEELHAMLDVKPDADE
Setting: k-mer, scored over probes, only values ≥0.25
Oligonucleotide | E-score
CATGCATG | 0.342
CGGATATC | 0.33
GCCCCGCC | 0.379
ACCCCACC | 0.311
TGACGTCA | 0.363
ACCGGAAG | 0.473
GTATGTCA | 0.306
ATTTTGGC | 0.267
ATCCCCGC | 0.27
ATGCCACA | 0.253
GCACCCAC | 0.265
CAACGTCG | 0.252
ATGGCAAT | 0.291
CGGGGCGA | 0.257
CGACGGAC | 0.274
AGGGGCGG | 0.413
TATGTGCA | 0.263
AGTGACAC | 0.269
GGTTTGCA | 0.294
GCCGACAC | 0.253
GTGCCAAA | 0.295
ACTTACAA | 0.318
ACGTTTTG | 0.257
ACAGGAAG | 0.299
ACCCCGCC | 0.407

Set 3 — technique: RNA Bind-n-Seq; molecule type: RNA; medium: in vitro; tested at: 20 nM; setting: 6-mer, flanks averaged, single round; with: 150 mM LiCl; relative to: input library; direction: higher = stronger binding
Target: TAR DNA-binding protein 43, full length, His tag (TARDBP, Homo sapiens, UniProt Q13148, residues 1-414)
Oligonucleotide | 6-mer enrichment (R)
GAAGUU | 0.942
AGCCUC | 0.879
AUAGGG | 1.07
UGCGCU | 0.971
AGCCCU | 0.999
GAAUUC | 0.918
AACGUA | 0.843
AGAAGC | 0.898
GCAAAC | 0.841
UGUAGA | 1.17
CACUAA | 0.863
UAAGUG | 1.16
ACUUGA | 0.878
UGACAG | 0.903
CAGUUC | 0.856
ACAAUU | 0.947
GUUAUG | 1.27
ACUCCA | 0.93
GGUAUA | 1.01
UAGGGC | 0.981
AGUAGA | 0.991
CAAGUC | 0.815
CUAUCU | 0.891
GAUAGC | 0.878
UCCGCG | 0.909

Set 4 — technique: RNA Bind-n-Seq; molecule type: RNA; medium: in vitro; tested at: 365 nM; relative to: no-protein control; direction: higher = stronger binding
Target: RNA binding protein fox-1 homolog 2, RRM domain, GST-SBP tag (RBFOX2, Homo sapiens, UniProt O43251-10, residues 100-194)
Setting: natural RNA segment, single round, ends assumed
Constant ends, left off below: GGGAGUUCUACAGUCCGACGAUC … UGGAAUUCUCGGGUGCCAA
Target sequence (chain): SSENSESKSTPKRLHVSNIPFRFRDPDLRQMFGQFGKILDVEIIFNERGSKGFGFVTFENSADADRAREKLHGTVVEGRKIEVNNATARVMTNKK
Oligonucleotide | RBNS enrichment (R)
GGGGUUGUUUUGUUUUUUUAAUUUGAGGCUCAAUUCUUCAUUUAUACUUGAAAAAAACAAGGCCAUAUGUAAAGAAAAAAAAAAACCCUCUUUCAAUGCCUAAGUGUCUU | 0.502
UGGCCUUGGCGAGGGCUGGUCUGUGCAUAGAAGGGAUAGUGGCCACACUGCAGCUGAGGCCCCAGGUGGCAGCCAUGGAUCAUGUAGACUUCCAGAUGGUCUCCCGAACC | 1.9
GCUUGACUGGGCGUCUUCCGCUGCAUAACACUCAAGGUGUCUGCUCUAGUCAUCCAGAAACCCACUCCCUUCUGAAGCCCCUCCUUGGGCCGGGUUGUAUCAGGAGGAUU | 0.443
AAGCACACUGGCUCGCGGUUUCCAUCCCUCUUGCCUUGGGACACUCUUGAGGCUGGCAGCCCUCCUGCAAUGAGUUGCUCUCAGUUCCUUCUGUUUGGAUUUUGCUCAAC | 0.515
CCUCUAAAGUGCCAAGGGACCAAUCAUUGAUGUUCCAUGGAGCCAGUCAUGGAAAUCCCUGGAAGGUUCACACAGCUCUCAUCCAAAGCCCUGGCCUUGCUAUGAGGGAA | 0.368
GUUGUGAAAGUGUCUGUGCACAUGAAUGUUUGUGUGUGUGUGAACUCUUUCUUACUGCUGGAAGUCACAGAAUUCAUAUUGCUGCCCGGGUUGGUGUGGCCACCUUUCCC | 1.41
CCACCUGACGCUGCAUGAGACAUUGACACCAGAAAGCCCUCUUGGGGGCACUGCUCCCUACCCCAGGGCCCUGGCCAGCCGGGAGCUUGGCUCUCCUCUGGCUAGAGUGG | 1.57
GUUCUUGAAAUGCAAGGUAUUUGGGGGUUAUUUAUUAUGAAAGCAACAUACUCUUAAUGUUGAUUUUACAAUAUGAAGAGAUUAUUUAAAAUAAAUUAUUGUUUUCAUUG | 0.948
UUCAUUUACUACGAUCUGUCCACACUCGAAAAGUAGGCUACAUUAAAUCAUGCUAGCAGCCUUAAGAGGUAAAGCCAUUGGAGAGAAGUGUCAAGCAUGGGAGCUAAAAU | 2.02
ACAGGGUUGGGCCUAGACGGAGUCCCCUGCAAUUAGCUUUCUAGGAUCUACCACACUUCUGUGAAAGCCACCUUCCCCCCACAUCUCAGUUCUCUUGGCCUCAAAACUCA | 1.29
CUUGGCCACCACAUGGCCAUCCUCAGUGAGGCGCCAUGAACCCUUCUUAGGCCCUCAGGUCCCCAUAGCACUGGGAGGGGGCGCUGGGGACCAUGUGCCCAGGGACUGCA | 3.99
UGUGUUCUAUACAUUGUGAAUCUUCCCGUCUGAAGAACGCCCAGCCUGCCCAGACAAAGCCCCGCCUUCCCCAAAGCAGAGGGGCUGUCUGUGUCUCCAGAAAGGGGACA | 0.185

Set 5 — technique: protein binding microarray; molecule type: double-stranded DNA, one strand shown; medium: in vitro; tested at: not given; relative to: not given; direction: higher = stronger binding
Target: Histone acetyltransferase KAT6A, both winged helices, GST fusion (KAT6A, Homo sapiens, UniProt Q92794, residues 1-181)
Setting: 8-mer, flanks averaged, mean of 2 arrays, mostly near background
Target sequence (chain): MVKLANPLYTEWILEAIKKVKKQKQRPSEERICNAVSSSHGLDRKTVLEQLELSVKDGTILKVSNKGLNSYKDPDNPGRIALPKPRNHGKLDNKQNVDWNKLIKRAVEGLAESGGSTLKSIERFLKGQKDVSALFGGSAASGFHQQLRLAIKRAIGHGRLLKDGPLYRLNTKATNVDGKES
Oligonucleotide | E-score
AGTTACAT | -0.166
ATATCCTC | -0.267
TAAGGTGA | -0.0872
GAGACGAC | -0.0446
AGTACAAA | -0.111
AAACGATG | 0.0919
GGGTAGGA | -0.00275
ATTGCATA | -0.00172
GCCATCGA | 0.089
ACGCGGGA | 0.254
ACCCTAAT | -0.276
CCTTTAAG | -0.205
CTGTCCTC | -0.115
AAACTAGA | -0.0201
CCAAGTGA | -0.222
GGCGAAAC | 0.0587
ACAATAGG | -0.00386
CGAGGTGA | 0.0174
CATTTCAA | -0.0898
AACTTTTC | -0.0582
AAAGCGGT | 0.211
CCTTTTCC | -0.0951
AGCTAGGC | -0.104

Set 6 — technique: protein-binding microarray; molecule type: double-stranded DNA, one strand shown; medium: in vitro; tested at: 2200 nM top; setting: 60-bp whole probe; with: salmon DNA 0.4 mg/ml; relative to: random background probes; direction: higher = stronger binding; constant ends, left off below: GCCTAGCAC … GTCTTGATTCGCTTGACGCTGCTG
Target: Interferon regulatory factor 7, full length, phosphomimetic (IRF7, Homo sapiens, UniProt Q92985, residues 1-503, S471D/S472D/S475D/S476D/S477D/S483D/S484D/S487D)
UniProt Q92985, sequence (whole entry, unmodified, looked up): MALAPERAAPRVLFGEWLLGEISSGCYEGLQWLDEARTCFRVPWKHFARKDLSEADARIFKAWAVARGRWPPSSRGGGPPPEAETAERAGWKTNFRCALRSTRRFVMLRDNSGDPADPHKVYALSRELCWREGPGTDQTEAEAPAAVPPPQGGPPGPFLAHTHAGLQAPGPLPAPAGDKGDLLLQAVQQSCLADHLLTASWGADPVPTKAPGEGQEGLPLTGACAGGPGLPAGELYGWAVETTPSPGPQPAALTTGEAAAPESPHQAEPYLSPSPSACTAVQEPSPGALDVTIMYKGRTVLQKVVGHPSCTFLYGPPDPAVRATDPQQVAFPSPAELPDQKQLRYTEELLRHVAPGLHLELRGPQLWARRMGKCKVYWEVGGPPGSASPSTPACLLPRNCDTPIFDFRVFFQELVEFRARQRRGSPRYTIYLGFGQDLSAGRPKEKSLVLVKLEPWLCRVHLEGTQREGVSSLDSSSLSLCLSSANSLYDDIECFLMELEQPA
Oligonucleotide | fitted relative affinity [z-score]
GACAGTTTCCTTTCCCTGACGTGCTAG | 5.54
TACGAACTGAGTATCGAGACGTGCTAG | -0.0369
TTAGGTATTGACTATCGGTTAGTGCTA | 0.103
AACGGTCTCCTTTTCCTGACGTGCTAG | 1.45
TCCAAATTGTCTCTGTCCCTGTGCTAG | 1.39
TCATTAATGCTTCTGGAACTGTGCTAG | 0.587
ATAGAACTGAGTATCGATTAGTGCTAG | 0.107
GACGGTATCGACTATCGGGTCGTGCTA | 0.116
GTCGGACTGCTTATCCTGACGTGCTAG | 0.852
TTAGGTTTGCTTTCCCTTTAGTGCTAG | 4.79
TGAGGACTGGGTTTCGGTTAGTGCTAG | 3.38
TTAGGTATCGGTATCGGTTGGTGCTAG | 1.36
GACGATATCAGACTGGACACGTGCTAG | 0.255
GACGGTTTCGGGTTTCGCGACGTGCTA | 8.82
CCCGCTTTTTTTTTTTTTTTGTGCTAG | 1.69
TTAGTACTGGACTTTCGGTTAGTGCTA | 5.51
GACGATATAAGTCTCGAGACGTGCTAG | 0.0873
TCACATATACACATCTTACTGTGCTAG | 1.31
TAAGGAGGCAGGGATGCTCCGTGCTAG | -1
GACGGTATCGGTATCCGGACGTGCTAG | 0.626
GACCATTCCAGTTTCGAGACGTGCTAG | 4.21
TCAAAAATCATTTTCTCACTGTGCTAG | 0.624

Set 7 — technique: universal PBM; molecule type: double-stranded DNA, one strand shown; medium: in vitro; tested at: not given; direction: higher = stronger binding
Target: Sal-like protein 4, full length isoform B (SALL4, Homo sapiens, UniProt Q9UJQ4-2, residues 1-616)
Setting: 8-mer, flanks averaged, mean of replicates
Oligonucleotide | E-score
CACTTAGA | 0.0808
CGATTGGA | -0.113
CGAGAAGA | -0.00311
ACTTGCGG | -0.179
GTAAACAA | 0.292
CATCGGCA | -0.135
CTGTACTA | -0.00679
TCCCTACA | 0.158
CAGTTTTA | 0.121
GCGCACGC | -0.293
AACTCCGG | -0.21
ACCCGTGC | -0.236
CCCGGGCC | -0.452
AAGTAGCG | -0.0681
CAGACCGC | -0.252
CATGGACA | -0.0647
CCAACACA | 0.137
TGTTAGAA | 0.205
GAGAATGC | -0.126

Repeated from above (set 7):
Oligonucleotide | E-score
CCCGGGCC | -0.452
AAGTAGCG | -0.0681
CAGACCGC | -0.252
CATGGACA | -0.0647
CCAACACA | 0.137
TGTTAGAA | 0.205
GAGAATGC | -0.126
